Experimental data pooled from the literature.
Parts stem from different laboratories: compare values within a part only.
Chain of UniProt Q76MJ5 (whole entry, looked up): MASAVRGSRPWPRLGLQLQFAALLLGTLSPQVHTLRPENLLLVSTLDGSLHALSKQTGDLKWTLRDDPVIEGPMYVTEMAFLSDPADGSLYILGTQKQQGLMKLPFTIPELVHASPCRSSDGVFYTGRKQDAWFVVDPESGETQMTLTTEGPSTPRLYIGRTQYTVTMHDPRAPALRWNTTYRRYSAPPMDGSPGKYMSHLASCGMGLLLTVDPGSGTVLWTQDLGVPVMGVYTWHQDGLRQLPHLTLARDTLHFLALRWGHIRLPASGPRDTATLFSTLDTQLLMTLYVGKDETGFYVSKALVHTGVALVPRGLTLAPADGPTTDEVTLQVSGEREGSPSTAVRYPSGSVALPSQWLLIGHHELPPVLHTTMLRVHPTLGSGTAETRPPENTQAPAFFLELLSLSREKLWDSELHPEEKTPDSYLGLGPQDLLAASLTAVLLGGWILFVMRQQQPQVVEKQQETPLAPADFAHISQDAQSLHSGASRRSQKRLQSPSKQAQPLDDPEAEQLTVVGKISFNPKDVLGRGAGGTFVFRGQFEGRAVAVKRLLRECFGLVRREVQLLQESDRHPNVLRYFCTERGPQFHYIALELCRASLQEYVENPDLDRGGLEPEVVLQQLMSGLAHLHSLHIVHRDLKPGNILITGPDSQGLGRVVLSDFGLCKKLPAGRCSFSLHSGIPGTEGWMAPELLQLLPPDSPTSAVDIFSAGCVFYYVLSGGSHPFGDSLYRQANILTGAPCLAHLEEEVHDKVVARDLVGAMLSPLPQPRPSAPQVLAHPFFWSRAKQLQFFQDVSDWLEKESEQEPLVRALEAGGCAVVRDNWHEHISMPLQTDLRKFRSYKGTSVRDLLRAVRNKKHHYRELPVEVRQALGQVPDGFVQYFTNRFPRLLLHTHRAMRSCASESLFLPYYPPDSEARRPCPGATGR
Chain of UniProt Q8IYT8 (whole entry, looked up): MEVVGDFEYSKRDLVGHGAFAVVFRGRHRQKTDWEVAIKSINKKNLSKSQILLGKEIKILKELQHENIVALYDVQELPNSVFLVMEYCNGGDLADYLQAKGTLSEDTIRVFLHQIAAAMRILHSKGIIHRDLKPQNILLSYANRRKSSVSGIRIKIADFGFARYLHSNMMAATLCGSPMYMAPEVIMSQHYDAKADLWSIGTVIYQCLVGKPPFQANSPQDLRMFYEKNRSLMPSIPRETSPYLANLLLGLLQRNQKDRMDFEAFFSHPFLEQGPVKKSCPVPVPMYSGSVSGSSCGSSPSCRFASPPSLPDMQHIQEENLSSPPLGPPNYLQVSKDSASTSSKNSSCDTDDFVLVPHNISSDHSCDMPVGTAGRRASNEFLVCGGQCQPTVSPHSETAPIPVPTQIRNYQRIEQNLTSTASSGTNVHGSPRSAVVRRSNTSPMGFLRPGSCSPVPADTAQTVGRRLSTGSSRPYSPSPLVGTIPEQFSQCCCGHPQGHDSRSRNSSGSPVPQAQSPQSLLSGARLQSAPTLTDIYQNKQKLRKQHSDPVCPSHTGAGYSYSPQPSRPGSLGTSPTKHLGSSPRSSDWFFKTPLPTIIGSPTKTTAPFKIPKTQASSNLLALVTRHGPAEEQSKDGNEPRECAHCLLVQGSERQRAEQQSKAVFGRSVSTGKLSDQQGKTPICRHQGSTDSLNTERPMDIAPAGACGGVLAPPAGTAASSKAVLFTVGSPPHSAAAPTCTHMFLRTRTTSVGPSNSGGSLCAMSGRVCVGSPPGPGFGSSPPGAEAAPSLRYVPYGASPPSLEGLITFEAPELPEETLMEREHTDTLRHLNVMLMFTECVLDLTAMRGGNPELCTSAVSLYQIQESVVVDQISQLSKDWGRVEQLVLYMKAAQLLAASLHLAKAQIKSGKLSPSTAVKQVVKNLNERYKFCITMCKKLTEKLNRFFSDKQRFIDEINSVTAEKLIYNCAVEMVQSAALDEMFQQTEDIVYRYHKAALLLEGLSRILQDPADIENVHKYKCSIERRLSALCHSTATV
Chain of UniProt Q04912 (whole entry, looked up): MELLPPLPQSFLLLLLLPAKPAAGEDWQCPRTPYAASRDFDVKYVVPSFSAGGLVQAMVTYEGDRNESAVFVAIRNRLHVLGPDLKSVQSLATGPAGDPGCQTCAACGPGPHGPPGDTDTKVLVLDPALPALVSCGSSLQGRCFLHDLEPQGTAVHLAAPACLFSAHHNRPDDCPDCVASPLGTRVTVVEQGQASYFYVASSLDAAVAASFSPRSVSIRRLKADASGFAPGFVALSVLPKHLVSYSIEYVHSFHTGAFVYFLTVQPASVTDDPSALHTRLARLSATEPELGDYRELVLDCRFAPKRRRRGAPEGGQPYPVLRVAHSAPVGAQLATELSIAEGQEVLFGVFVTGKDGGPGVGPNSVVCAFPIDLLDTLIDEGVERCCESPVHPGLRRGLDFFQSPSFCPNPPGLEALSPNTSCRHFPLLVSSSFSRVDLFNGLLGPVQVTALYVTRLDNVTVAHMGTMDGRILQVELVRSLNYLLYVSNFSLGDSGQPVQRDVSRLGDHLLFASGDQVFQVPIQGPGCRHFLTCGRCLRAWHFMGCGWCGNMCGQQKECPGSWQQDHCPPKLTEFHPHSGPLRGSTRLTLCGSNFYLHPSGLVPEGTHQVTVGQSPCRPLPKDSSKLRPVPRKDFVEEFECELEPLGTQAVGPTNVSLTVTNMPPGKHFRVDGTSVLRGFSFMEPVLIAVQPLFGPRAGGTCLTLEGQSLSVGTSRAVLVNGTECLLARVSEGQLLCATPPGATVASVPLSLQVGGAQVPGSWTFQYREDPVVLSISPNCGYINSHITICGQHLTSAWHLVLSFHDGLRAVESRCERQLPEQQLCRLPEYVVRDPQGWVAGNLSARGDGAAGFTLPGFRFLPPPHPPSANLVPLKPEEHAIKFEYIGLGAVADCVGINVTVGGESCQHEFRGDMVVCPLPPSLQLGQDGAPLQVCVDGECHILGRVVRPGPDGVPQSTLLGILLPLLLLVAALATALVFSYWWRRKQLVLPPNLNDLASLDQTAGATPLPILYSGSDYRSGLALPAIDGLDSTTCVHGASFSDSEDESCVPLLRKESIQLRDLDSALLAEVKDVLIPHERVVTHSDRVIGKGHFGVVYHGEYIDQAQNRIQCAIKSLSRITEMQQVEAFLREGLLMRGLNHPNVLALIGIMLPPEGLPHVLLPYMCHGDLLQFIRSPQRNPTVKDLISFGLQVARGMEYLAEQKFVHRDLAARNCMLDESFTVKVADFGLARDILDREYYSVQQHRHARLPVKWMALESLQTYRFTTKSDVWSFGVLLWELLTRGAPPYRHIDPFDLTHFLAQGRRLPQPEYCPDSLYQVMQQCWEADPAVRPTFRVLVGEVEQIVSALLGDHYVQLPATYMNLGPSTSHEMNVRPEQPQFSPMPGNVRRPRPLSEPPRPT

Set 1
Structure (SMILES): C[C@@H]1CN(c2ccc(-c3cc(C(=O)NCCOCCOCCOCCOCCNC(=O)/C=C/c4[nH]cc(C(=O)N[C@@H](CC(N)=O)c5ccc(F)c(Cl)c5)c4-c4ccc(Cl)cc4F)ccc3F)cc2NC(=O)c2c[nH]c(=O)cc2C(F)(F)F)C[C@H](C)N1C
Read-out: thermal unfolding
Technique: differential scanning fluorimetry
Concentration: 5.5 µM
Reading: higher = more unfolded
WDR5: WD repeat-containing protein 5 (WDR5, Homo sapiens, UniProt P61964)
DCAF1: DDB1- and CUL4-associated factor 1 (DCAF1, Homo sapiens, UniProt Q9Y4B6)
Chain of UniProt Q9Y4B6 (whole entry, looked up): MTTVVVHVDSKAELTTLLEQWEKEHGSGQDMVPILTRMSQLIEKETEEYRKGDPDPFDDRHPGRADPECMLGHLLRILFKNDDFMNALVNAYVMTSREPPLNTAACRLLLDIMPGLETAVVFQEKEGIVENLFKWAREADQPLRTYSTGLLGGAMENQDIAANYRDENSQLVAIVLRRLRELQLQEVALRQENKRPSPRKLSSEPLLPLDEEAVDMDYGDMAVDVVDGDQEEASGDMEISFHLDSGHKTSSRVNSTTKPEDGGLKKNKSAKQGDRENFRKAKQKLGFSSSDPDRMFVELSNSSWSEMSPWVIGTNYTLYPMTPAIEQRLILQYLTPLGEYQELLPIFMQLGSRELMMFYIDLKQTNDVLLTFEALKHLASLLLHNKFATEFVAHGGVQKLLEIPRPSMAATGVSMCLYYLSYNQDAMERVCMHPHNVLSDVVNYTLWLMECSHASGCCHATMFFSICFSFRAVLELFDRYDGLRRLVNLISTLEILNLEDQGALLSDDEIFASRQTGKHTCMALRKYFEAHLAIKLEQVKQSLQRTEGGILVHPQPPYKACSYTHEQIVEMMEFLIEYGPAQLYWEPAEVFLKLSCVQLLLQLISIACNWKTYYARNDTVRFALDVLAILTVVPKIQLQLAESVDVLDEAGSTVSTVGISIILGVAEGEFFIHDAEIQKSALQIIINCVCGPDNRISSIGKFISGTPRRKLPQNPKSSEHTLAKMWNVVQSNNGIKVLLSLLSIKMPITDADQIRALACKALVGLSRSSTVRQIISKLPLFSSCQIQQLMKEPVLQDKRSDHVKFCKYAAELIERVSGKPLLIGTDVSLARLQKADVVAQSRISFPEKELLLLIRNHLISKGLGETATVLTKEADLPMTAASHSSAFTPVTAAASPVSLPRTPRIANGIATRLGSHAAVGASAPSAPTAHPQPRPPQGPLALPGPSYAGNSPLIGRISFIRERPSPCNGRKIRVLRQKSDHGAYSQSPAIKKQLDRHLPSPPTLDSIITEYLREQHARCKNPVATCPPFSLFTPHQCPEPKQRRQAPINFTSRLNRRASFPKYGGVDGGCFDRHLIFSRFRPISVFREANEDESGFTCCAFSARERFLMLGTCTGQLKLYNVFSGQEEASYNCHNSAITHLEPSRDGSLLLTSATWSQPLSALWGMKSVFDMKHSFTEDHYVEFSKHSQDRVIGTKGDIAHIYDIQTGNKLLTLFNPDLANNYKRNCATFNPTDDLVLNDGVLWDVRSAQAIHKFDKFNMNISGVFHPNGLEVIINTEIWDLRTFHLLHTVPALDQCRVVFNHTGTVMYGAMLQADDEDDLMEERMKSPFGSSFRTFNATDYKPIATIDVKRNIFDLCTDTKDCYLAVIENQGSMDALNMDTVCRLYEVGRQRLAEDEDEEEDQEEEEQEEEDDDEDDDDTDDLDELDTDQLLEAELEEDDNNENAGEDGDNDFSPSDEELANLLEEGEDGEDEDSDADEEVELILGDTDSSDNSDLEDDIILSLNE
target | temperature | SYPRO Orange fluorescence [a.u.]
WDR5 | 73.41 °C | 22000
WDR5 | 38.4 °C | 14100
DCAF1 | 88.01 °C | 37000
DCAF1 | 79.61 °C | 45700
WDR5 | 88.21 °C | 53000
WDR5 | 51.6 °C | 16800
DCAF1 | 85.01 °C | 40200
DCAF1 | 36.4 °C | 10500

Set 2
Compound: COc1cc(-c2nc3ccc(C(=O)NCCCN(C)C)cc3n2C2CCC2)cc(OC)c1OC
Technique: NanoBRET
Concentration: 1 µM
target | target occupancy [%]
STK38 (Homo sapiens, UniProt Q15208) | 8.38
ERN1 (Homo sapiens, UniProt O75460) | -3.49
NEK5 (Homo sapiens, UniProt Q6P3R8) | 3.11
MAPK4 (Homo sapiens, UniProt P31152) | -3.47
TEK (Homo sapiens, UniProt Q02763) | 5.73
EPHA4 (Homo sapiens, UniProt P54764) | 2.09
TEC (Homo sapiens, UniProt P42680) | -2.73
RPS6KA6 (Homo sapiens, UniProt Q9UK32) | 2.37
ERN2 (Homo sapiens, UniProt Q76MJ5) | 0.62
PKMYT1 (Homo sapiens, UniProt Q99640) | 5.3
MST1R (Homo sapiens, UniProt Q04912) | 1.69
MAP3K19 (Homo sapiens, UniProt Q56UN5) | 0.83
STK10 (Homo sapiens, UniProt O94804) | 1.89
BRSK1 (Homo sapiens, UniProt Q8TDC3) | -1.12
EPHA6 (Homo sapiens, UniProt Q9UF33) | -11.9
LATS1 (Homo sapiens, UniProt O95835) | -9.73
SIK2 (Homo sapiens, UniProt Q9H0K1) | -0.65

Set 3
Compound: CCC1(c2cccc(-c3cn(C)nc3C)c2)C2=C(Nc3n[nH]cc31)C(F)C(C)(C)CC2=O (single isomer, unassigned)
Concentration: 1 µM
target | read-out | technique | baseline | remaining binding [%]
PRKG2 (Homo sapiens, UniProt Q13237) | kinase binding | KINOMEscan | DMSO control | 100
ERBB4 (Homo sapiens, UniProt Q15303) | binding | competition with immobilised ligand |  | 100
ACVRL1 (Homo sapiens, UniProt P37023) | kinase binding | KINOMEscan | DMSO control | 92
ERBB2 (Homo sapiens, UniProt P04626) | binding | competition with immobilised ligand |  | 90
ULK1 (Homo sapiens, UniProt O75385) | binding | competition with immobilised ligand |  | 100
SNRK (Homo sapiens, UniProt Q9NRH2) | kinase binding | KINOMEscan | DMSO control | 95
CDK11B (Homo sapiens, UniProt P21127) | binding | competition with immobilised ligand |  | 100
JAK2 (Homo sapiens, UniProt O60674) | kinase binding | KINOMEscan | DMSO control | 97
FLT3 (Homo sapiens, UniProt P36888) | kinase binding | KINOMEscan | DMSO control | 100
ULK2 (Homo sapiens, UniProt Q8IYT8) | kinase binding | KINOMEscan | DMSO control | 77
GSK3A (Homo sapiens, UniProt P49840) | binding | competition with immobilised ligand |  | 0
STK32C (Homo sapiens, UniProt Q86UX6) | kinase binding | KINOMEscan | DMSO control | 100
CDK8 (Homo sapiens, UniProt P49336) | kinase binding | KINOMEscan | DMSO control | 100
EGFR (Homo sapiens, UniProt P00533, del752-759) | binding | competition with immobilised ligand |  | 99

Set 4
SMILES: Cc1ccc(O)c(C)c1-c1cnc2[nH]c(-c3cnc(N4CCC5(CC4)CC(N4CCN(c6ccc(NC7CCC(=O)NC7=O)cc6F)CC4)CO5)nc3)cc2c1C#N (stereo not shown)
Target: Membrane-associated tyrosine- and threonine-specific cdc2-inhibitory kinase (PKMYT1, Homo sapiens, UniProt Q99640)
Residues (Q99640 1-499): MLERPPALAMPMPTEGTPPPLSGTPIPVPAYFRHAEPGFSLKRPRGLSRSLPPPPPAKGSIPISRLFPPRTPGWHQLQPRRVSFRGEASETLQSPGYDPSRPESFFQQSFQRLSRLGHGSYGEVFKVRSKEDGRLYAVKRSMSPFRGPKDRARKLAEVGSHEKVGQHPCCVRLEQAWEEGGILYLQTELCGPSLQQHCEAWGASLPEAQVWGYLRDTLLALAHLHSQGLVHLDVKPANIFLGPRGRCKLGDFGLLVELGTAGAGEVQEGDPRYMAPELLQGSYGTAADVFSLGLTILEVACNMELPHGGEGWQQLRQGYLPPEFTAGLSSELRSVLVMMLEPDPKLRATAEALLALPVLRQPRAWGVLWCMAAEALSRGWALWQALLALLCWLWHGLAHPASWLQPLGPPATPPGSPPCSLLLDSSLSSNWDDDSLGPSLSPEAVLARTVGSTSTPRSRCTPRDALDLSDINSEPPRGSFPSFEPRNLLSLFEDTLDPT
cell line | concentration | degradation
HCC1599 | 0.15 nM | 24.7%
HuCCT-1 | 0.05 nM | 14.3%
HuCCT-1 | 1000 nM | 30.2%
HuCCT-1 | 111.11 nM | 55.1%
HuCCT-1 | 12.35 nM | 80.6%
HuCCT-1 | 1.37 nM | 63.7%
MDA-MB-157 | 4.12 nM | 61.9%
